Measured values pooled from the literature.
Every numbered part comes from another study and shows a few of its results, in no order. Changes are numbered by the printed parent chain.

Block 1
Target: Fragile X messenger ribonucleoprotein 1, C-terminal low-complexity region (Fmr1, Mus musculus, UniProt P35922)
Method: RNA Bind-n-Seq
Form: RNA
Sample: in vitro
Tested at: 200 nM
Setting: whole 134-nt RNA, ends assumed
With: 150 mM LiCl
Relative to: input library
Direction: higher = stronger binding
All molecules: 7-deaza-guanosine replaces G
All sequences stand within: GGGAGUUCUACAGUCCGACGAUC … UGGAAUUCUCGGGUGUCAAGG
| Oligonucleotide | log2 enrichment |
| --- | --- |
| CCUGUGCUACACAUCGUAUGUACCGAAUCGGAAAAAAAGGAAAAAAAGGGAAAAAAAGGGGAAAGUAUUAUGUUACGCCGUUCGGAUCUG | -0.389 |
| UCCUGUGCUACACAUCGUAUGUACCGAAUCGGGGUUUUUGGGGUUUUUGGGGUUUUUGGAAAGUAUUAUGUUACGCCGUUCGGAUCUGCA | 0.629 |
| AGUCCUGUGCUACACAUCGUAUGUACCGAAUCGGGAAAGGGAAAAAGGGAAAAAGGGAAAGUAUUAUGUUACGCCGUUCGGAUCUGCACU | -0.7 |
| AGUCCUGUGCUACACAUCGUAUGUACCGAAUCAAAUUUAAAUUUUUAAAUUUUUAAAAAAGUAUUAUGUUACGCCGUUCGGAUCUGCACU | -3.44 |
| GCAGGAAGUAAAAACAAAUGGAAAUGCUAAAGAUAGUGGCAGGGGUGGGGGUUGCUAAGGAAAGGGUGGGAUGGGAGUGGGUAAAGAGUU | 1.77 |
| CCUGUGCUACACAUCGUAUGUACCGAAUCGGGUUUUUUGGGGUUUUUUGGGGUUUUUUGGGAAAGUAUUAUGUUACGCCGUUCGGAUCUG | -0.201 |
| GCAGGAAGAAAAAACAAAUGGAAAUGCUUCGGAUAGUGGCAGGGGUGGGGGUUGCUAAGGAAAGGGUGGGAUGGGAGUGGGUAAAGAGUU | 1.54 |
| CCUCAAGUCCUGUGCUACACAUCGUAUGUACCGAAUCGGGUGGUGGGUGGGGAAAGUAUUAUGUUACGCCGUUCGGAUCUGCACUUCCAG | -0.301 |
| AGUCCUGUGCUACACAUCGUAUGUACCGAAUCGGUUUUUGGUUUUUUUGGUUUUUGGAAAGUAUUAUGUUACGCCGUUCGGAUCUGCACU | -2.05 |
| CAAGUCCUGUGCUACACAUCGUAUGUACCGAAUCGGAAAAAGGUUUUUUUGGAGGAAAGUAUUAUGUUACGCCGUUCGGAUCUGCACUUC | -1.9 |
| ACCAUGCAGGUGGGCAUCUUUGGGAAGUGGGGCAACGGGGGGAUAGGGAGGGGGGUAACACUUUGGGAACAGGUGGUCCCAGGUCGUUUC | 0.898 |

Block 2
Target: RNA binding protein fox-1 homolog 2, RRM domain, GST-SBP tag (RBFOX2, Homo sapiens, UniProt O43251-10, residues 100-194)
Method: RNA Bind-n-Seq
Form: RNA
Sample: in vitro
Tested at: 365 nM
Setting: natural RNA segment, single round, ends assumed
Relative to: no-protein control
Direction: higher = stronger binding
All sequences stand within: GGGAGUUCUACAGUCCGACGAUC … UGGAAUUCUCGGGUGCCAA
Target sequence (chain): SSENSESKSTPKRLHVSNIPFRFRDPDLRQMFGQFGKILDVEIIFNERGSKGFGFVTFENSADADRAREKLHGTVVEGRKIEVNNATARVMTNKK
| Oligonucleotide | RBNS enrichment (R) |
| --- | --- |
| ACCCCUGAAGAGAACACUUCCUGUUGGUCUGUCUCUUCCCACCUUCCAUCUGCACACACCCCCAAGGUAAGGGUACAGCCCGGCUGGCGGCCUCCUUGGGAACGUGUAGG | 0.289 |
| AGAGCGGCUGAGGGCUGCCUCACUGCAAAUCCUCCCCACAGCGUCAGUGAAAGUCGUCCUUGUCUCAGAAUGACCAGGGGCCAGCCAGUGUCUGACCAAGGUCAAGGGGC | 1.07 |
| GAAAAGGGAGUAAAGGAAAAAAGAGGUCAACCACUGUUUCUGAUAAUGUACUUGAGUUUCAUUGUUCUUUUAGUUUGUAUUCUUAUAAAAAAUGUUUACACUCUGCAGAU | 0.412 |
| AAAACCACCUGUAGGAUACUGCAUUAAGUCAGCAUCUCAGAAACAGUGGUGUGAGUAACUGAGUCAAAUUGUCAAGUACUUUGGAUAUACAUAGUGUCGAGCUUUAGAUU | 0.451 |
| CUUCUUUCUCAACAAUAAAAAAUGUAACUAUUUUGAAUGCCCACAAAUCCCAUUCCAGUGUUACUUUCUGUGAAUGCAGUACCAUAUUCUCAUUUUCAAUGACAUUUCAA | 0.985 |
| CCAUGGCAGUCUAACUUAGCCUGCUUGUCUAAAUUGACUUCUGGUAACCACUUGGGCUAGGACACAGGAGGAAAGGAAGGCACUGUAUUUCCUAUGAGCUCUCUGCUCAG | 0.336 |
| GCCCUGCACUUUGCAUAUCUGUAUAGAAAAUCAAGUCAAUCCCCCAUCCUCACACCCACUCAUCUCUGAGGAGCUAUGAACUGGUUUUGGUCCCUCUAAUGAUCCUCCAG | 1.13 |
| AAUAUUACACAGUAAUGGUAAUUUAUAAAGGAGUGUAUAGUAGUAUACUGACUGCUAAGUGUACUAUACUGUUUGCUUUACUAAUCACCUAAUUCAUUGCAGUUCAUACU | 0.951 |
| CACACUGCCCAUGGUGGGUUUAAGUUACUGAAGUUCGAUUACUCAGGCCUGAUGAAUUUUUAAGACUGCUUUGUUGGUCAUUUGGCUGAUGGCUUCUUAUGUGCAUUCAA | 0.417 |

Block 3
Target: ABI1, truncated, D143A, DHFR fusion (Arabidopsis thaliana)
Method: DHFR PCA, deep sequencing
Sample: yeast
Setting: methotrexate growth selection, single substitutions
With: (+)-ABA 1.4 µM
Relative to: wild-type fitted maximum
Direction: higher = stronger binding
Parent: PYL1, truncated, DHFR fusion (Arabidopsis thaliana); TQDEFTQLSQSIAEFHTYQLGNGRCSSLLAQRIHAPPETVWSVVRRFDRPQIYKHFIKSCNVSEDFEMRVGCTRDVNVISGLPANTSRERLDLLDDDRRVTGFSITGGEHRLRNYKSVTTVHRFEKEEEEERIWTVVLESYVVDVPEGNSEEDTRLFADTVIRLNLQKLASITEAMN; partner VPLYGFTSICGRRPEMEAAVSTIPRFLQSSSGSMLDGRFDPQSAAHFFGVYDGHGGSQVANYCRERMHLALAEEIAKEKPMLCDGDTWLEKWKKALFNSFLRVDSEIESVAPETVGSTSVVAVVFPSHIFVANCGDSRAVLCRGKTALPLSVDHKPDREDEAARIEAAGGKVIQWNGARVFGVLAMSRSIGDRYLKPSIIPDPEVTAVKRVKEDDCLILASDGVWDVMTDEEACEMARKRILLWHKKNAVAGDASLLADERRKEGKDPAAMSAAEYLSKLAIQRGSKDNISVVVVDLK
| Change | relative binding score [%] |
| --- | --- |
| R98H | 27.4 |
| G71M | -7.36 |
| S26I | -13.9 |
| S171M | 47 |
| N149F | -19.2 |
| A170E | -0.097 |
| T39D | 41.4 |

Further values, each from its own experiment
| Molecule | target | test | system | setting | scale | quantity | value |
| --- | --- | --- | --- | --- | --- | --- | --- |
| PhoQ, residues 284 288 289 292 302 303 SLGVVW | PhoP, residues 12 14 15 18 19 LHSVQ (Escherichia coli, UniProt P23836) | Sort-seq, refers to: YFP reporter | E. coli | PhoQ-PhoP variant library, with: 10 µM Mg2+ | relative to: high Mg2+ state, higher = stronger signaling | fold induction | 13.6 |

Some of these lines once more (block 2):
| Oligonucleotide | RBNS enrichment (R) |
| --- | --- |
| CACACUGCCCAUGGUGGGUUUAAGUUACUGAAGUUCGAUUACUCAGGCCUGAUGAAUUUUUAAGACUGCUUUGUUGGUCAUUUGGCUGAUGGCUUCUUAUGUGCAUUCAA | 0.417 |
| AGAGCGGCUGAGGGCUGCCUCACUGCAAAUCCUCCCCACAGCGUCAGUGAAAGUCGUCCUUGUCUCAGAAUGACCAGGGGCCAGCCAGUGUCUGACCAAGGUCAAGGGGC | 1.07 |
